Published values of several laboratories.
Every numbered part comes from another study and shows a few of its results, in no order.
UniProt Q15418, sequence (whole entry, looked up): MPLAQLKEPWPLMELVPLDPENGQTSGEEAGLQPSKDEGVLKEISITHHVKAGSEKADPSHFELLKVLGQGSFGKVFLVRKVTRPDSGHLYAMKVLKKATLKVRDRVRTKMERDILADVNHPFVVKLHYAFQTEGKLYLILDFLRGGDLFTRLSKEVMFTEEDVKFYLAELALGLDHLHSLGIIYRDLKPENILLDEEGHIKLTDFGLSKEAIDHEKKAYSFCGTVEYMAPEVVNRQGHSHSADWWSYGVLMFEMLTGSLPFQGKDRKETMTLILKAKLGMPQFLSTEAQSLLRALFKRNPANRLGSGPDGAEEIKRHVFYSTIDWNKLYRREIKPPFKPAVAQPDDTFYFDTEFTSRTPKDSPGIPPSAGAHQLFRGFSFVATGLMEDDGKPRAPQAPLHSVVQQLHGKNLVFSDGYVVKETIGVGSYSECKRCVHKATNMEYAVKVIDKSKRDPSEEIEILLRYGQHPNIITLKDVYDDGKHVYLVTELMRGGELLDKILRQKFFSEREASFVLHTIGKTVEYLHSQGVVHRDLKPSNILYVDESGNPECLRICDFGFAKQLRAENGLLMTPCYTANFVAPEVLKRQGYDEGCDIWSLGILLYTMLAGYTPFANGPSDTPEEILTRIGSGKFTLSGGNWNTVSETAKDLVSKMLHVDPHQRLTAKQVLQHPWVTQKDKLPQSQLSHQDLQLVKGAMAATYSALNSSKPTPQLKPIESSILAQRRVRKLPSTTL
UniProt O60674, sequence (whole entry, looked up): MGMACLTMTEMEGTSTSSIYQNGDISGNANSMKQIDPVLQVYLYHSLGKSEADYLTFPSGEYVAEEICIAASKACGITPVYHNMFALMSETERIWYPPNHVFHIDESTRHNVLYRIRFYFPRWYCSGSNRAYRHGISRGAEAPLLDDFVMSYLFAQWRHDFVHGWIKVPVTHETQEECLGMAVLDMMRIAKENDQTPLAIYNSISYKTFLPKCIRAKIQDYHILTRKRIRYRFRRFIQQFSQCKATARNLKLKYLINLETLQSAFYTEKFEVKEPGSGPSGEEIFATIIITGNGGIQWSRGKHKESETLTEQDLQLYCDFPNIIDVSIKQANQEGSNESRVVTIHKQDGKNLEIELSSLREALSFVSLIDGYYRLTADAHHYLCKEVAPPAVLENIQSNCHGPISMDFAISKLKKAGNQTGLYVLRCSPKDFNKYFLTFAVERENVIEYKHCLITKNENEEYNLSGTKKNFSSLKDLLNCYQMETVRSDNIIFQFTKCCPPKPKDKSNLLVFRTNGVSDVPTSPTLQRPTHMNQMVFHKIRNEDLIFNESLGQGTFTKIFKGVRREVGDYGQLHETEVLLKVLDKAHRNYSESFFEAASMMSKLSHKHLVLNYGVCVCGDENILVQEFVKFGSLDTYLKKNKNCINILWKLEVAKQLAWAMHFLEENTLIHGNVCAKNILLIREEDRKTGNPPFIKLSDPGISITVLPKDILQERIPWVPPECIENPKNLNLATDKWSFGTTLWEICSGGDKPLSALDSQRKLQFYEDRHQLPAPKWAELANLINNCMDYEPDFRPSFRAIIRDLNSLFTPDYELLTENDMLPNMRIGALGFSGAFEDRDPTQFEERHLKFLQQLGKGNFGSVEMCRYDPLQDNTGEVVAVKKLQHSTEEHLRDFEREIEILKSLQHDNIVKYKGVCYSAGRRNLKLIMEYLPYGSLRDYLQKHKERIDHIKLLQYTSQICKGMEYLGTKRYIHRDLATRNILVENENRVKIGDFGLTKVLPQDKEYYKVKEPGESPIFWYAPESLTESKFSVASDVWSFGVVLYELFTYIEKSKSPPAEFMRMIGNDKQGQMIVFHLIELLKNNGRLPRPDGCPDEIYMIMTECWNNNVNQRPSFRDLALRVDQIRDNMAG
UniProt P06239, sequence (whole entry, looked up): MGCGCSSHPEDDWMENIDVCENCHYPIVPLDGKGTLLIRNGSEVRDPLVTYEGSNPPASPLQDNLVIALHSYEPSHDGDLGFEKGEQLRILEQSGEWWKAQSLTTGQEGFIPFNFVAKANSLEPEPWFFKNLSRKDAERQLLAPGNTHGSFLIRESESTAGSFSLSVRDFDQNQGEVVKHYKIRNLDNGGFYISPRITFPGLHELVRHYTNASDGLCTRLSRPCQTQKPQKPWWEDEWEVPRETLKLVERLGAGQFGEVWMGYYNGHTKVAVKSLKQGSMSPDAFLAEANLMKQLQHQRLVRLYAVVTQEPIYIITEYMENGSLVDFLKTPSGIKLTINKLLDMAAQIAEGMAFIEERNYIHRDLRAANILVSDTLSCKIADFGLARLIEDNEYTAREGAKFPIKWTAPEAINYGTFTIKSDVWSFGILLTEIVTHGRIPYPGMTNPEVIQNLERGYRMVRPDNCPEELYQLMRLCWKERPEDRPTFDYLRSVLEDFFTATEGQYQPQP
UniProt Q96PN8, sequence (whole entry, looked up): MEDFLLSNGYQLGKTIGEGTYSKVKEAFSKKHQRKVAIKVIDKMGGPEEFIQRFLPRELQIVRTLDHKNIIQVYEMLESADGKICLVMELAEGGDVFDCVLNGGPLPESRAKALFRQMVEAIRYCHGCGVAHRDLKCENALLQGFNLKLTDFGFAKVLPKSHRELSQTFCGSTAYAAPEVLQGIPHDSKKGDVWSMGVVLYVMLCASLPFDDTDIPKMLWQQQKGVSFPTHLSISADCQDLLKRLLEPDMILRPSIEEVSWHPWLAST
UniProt P35626, sequence (whole entry, looked up): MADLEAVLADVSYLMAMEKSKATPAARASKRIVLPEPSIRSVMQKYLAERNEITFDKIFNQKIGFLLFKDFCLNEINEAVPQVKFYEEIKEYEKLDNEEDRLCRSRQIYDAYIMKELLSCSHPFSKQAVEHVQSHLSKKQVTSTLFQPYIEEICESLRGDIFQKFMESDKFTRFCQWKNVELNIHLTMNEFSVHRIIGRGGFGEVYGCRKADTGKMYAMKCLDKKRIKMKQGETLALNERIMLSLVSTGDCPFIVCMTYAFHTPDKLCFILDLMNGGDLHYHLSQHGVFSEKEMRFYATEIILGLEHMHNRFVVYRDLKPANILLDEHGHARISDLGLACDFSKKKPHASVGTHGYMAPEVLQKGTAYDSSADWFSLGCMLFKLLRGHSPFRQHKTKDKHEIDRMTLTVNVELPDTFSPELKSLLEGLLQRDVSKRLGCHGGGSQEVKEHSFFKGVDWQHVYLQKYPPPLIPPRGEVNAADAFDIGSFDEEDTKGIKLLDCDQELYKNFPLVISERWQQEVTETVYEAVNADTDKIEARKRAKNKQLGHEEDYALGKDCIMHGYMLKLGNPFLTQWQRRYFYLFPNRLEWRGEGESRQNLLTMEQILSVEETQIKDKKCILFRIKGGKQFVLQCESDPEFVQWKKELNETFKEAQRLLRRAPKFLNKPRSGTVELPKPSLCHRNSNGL
UniProt P41240, sequence (whole entry, looked up): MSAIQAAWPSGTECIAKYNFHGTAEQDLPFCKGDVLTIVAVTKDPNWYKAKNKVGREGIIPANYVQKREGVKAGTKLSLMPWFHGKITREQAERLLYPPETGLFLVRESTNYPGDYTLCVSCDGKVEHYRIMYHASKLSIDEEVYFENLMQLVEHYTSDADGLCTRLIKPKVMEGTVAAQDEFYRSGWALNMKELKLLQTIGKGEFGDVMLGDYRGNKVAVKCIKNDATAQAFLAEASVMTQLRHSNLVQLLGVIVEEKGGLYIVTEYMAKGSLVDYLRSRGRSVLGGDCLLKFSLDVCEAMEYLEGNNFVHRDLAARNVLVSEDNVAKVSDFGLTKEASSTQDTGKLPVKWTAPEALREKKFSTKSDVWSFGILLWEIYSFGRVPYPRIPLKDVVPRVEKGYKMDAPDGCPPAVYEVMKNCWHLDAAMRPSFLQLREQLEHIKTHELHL
UniProt P35590, sequence (whole entry, looked up): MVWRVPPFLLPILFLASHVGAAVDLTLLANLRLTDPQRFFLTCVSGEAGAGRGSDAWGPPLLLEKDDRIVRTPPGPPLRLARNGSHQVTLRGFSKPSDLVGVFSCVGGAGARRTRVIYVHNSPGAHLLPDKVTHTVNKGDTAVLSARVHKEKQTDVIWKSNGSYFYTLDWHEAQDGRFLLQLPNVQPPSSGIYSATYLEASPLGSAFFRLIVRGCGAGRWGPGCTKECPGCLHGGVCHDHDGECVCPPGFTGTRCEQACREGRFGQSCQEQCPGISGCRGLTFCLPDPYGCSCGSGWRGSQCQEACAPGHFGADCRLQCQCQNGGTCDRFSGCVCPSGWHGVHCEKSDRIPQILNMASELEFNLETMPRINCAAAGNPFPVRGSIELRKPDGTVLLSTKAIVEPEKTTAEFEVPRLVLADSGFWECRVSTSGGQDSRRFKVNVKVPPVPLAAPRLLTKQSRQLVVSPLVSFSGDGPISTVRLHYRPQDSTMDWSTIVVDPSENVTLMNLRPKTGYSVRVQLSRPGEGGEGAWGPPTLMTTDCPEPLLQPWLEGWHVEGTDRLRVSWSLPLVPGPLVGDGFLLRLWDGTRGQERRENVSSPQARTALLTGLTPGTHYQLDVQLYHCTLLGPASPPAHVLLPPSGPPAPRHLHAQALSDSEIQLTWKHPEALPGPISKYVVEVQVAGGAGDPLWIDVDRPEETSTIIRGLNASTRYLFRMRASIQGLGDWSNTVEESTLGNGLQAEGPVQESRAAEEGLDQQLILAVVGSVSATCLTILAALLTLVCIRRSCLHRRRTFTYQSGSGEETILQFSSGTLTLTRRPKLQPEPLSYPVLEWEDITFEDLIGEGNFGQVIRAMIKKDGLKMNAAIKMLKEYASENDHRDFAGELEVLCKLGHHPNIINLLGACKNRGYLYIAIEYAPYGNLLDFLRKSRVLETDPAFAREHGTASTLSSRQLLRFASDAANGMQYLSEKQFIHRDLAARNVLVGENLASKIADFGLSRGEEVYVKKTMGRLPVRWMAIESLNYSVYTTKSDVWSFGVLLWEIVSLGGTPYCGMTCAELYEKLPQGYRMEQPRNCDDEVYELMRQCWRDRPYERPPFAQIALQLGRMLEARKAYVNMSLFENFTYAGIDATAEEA

Series 1
SMILES: CC(C)n1cnc(-c2ccc(F)cc2)c1-c1ncc(C(=O)Nc2ccc(N3CCN(C)CC3)cc2)[nH]1
Method: phase 2a trial
Host: idiopathic pulmonary fibrosis patients
| dose | setting | patients with AST increased [%] |
| --- | --- | --- |
| 30 mg once daily | adverse event grade 2 | 0 |
| 30 mg once daily | adverse event grade 3 | 0 |
| 30 mg once daily | adverse event grade 5 | 0 |
| 30 mg once daily | adverse event grade 1 | 1 |
| 30 mg once daily | adverse event grade 4 | 0 |
| 60 mg once daily | adverse event grade 2 | 1 |
| 60 mg once daily | adverse event grade 3 | 0 |

Series 2
Structure (SMILES): Cc1cc(Nc2cc(N3CCN(C)CC3)nc(Sc3ccc(NC(=O)C4CC4)cc3)n2)[nH]n1
Read-out: enzyme activity
Mode: inhibitor
Concentration: 0.5 µM
Reference: control
| target | remaining activity [%] |
| --- | --- |
| Beta-adrenergic receptor kinase 1 (GRK2, Homo sapiens, UniProt P25098) | 107 |
| Ephrin type-B receptor 2 (EPHB2, Homo sapiens, UniProt P29323) | 78.3 |
| Macrophage colony-stimulating factor 1 receptor (CSF1R, Homo sapiens, UniProt P07333) | 106 |
| Ribosomal protein S6 kinase alpha-1 (RPS6KA1, Homo sapiens, UniProt Q15418) | 103 |
| Myosin light chain kinase, smooth muscle (MYLK, Homo sapiens, UniProt Q15746) | 97 |
| G protein-coupled receptor kinase 6 (GRK6, Homo sapiens, UniProt P43250) | 104 |
| SRSF protein kinase 3 (SRPK3, Homo sapiens, UniProt Q9UPE1) | 105 |
| Serine/threonine-protein kinase PAK 2 (PAK2, Homo sapiens, UniProt Q13177) | 93.1 |

Series 3
Host: human
Medium: microsomes or S9
Concentration: 2 µM
Time: 0.5 h
| SMILES | remaining compound |
| --- | --- |
| COc1ccc(/C=C2\OC(=O)C=C2c2ccc(O)cc2)cc1 | 69% |
| CCC(C)(C)Nc1[nH]c2c(Cl)cc(C)cc2c(=O)c1C(C)=O | 48.1% |
| Cc1c(CC(=O)O)c2c(n1-c1ccc(Br)cc1)CC(C)(C)CC2=O | 61.9% |
| Cn1cc(-c2ccc(=O)n(CC3CN(c4ncc(OCCN5CCCC5)cn4)CCO3)n2)cn1 (stereo not drawn) | 97.9% |
| CC(C)(C)OC(=O)N1CCC2(CC1)NN=C1C=C(N3CCN(c4ccccc4F)CC3)N=CN12 | 81.8% |
| Cc1ccc(S(=O)(=O)Nc2c(C)[nH]c(=O)[nH]c2=O)cc1 | 88.5% |
| Cc1nn(C)cc1-c1cc(-c2cn(C)nc2C)n(CC(=O)N(C)Cc2ccn(C)n2)n1 | > 100% |
| O=C(Nc1ccc2c(c1)OCO2)C1CCN(Cc2nnc(-c3ccc(Br)s3)o2)CC1 | 27.2% |
| O=S1(=O)N=C(Nc2nccs2)c2ccccc21 | 82.3% |
| Cc1nc(Oc2ccc3c(c2)OCO3)c2c3c(sc2n1)CCC3 | 0.308% |
| O=c1[nH]ncn2c1cc1cc(Br)ccc12 | 72.3% |
| COc1cc(N2CCN(C(C)=O)CC2)ccc1Nc1ncc(Cl)c(Nc2ccc(N3CCN(S(C)(=O)=O)CC3)cc2OC)n1 | 0% |
| Cc1ccc(Cn2c(=O)c3nn(C)cc3n3c(=O)n(Cc4nc(-c5ccccc5)oc4C)nc23)cc1 | 24.6% |
| CC(C)(C)c1ccc(O)c(NC(=O)c2cc(Br)c[nH]2)c1 | 0.328% |

Series 4
SMILES: CN(C)C(=O)Cn1cc(-c2nc(C3(c4ccc(-c5cnc(N)nc5)cc4)CC3)no2)cn1
Read-out: cell-free assay
Method: competition with immobilised ligand
Concentration: 1 µM
| target | remaining binding |
| --- | --- |
| Ribosomal protein S6 kinase alpha-1, C-terminal kinase domain (RPS6KA1, Homo sapiens, UniProt Q15418) | 100% |
| Serine/threonine-protein kinase WNK2 (WNK2, Homo sapiens, UniProt Q9Y3S1) | 67% |
| Serine/threonine-protein kinase ULK3 (ULK3, Homo sapiens, UniProt Q6PHR2) | 68% |
| Fibroblast growth factor receptor 3 (FGFR3, Homo sapiens, UniProt P22607, G697C) | 100% |
| Mitogen-activated protein kinase kinase kinase kinase 4 (MAP4K4, Homo sapiens, UniProt O95819) | 66% |
| TGF-beta receptor type-2 (TGFBR2, Homo sapiens, UniProt P37173) | 100% |
| Tyrosine-protein kinase CSK (CSK, Homo sapiens, UniProt P41240) | 100% |
| G protein-coupled receptor kinase 3 (GRK3, Homo sapiens, UniProt P35626) | 69% |
| Phosphatidylinositol 4,5-bisphosphate 3-kinase catalytic subunit alpha isoform (PIK3CA, Homo sapiens, UniProt P42336) | 76% |
| Mitogen-activated protein kinase kinase kinase 9 (MAP3K9, Homo sapiens, UniProt P80192) | 91% |
| Interleukin-1 receptor-associated kinase 1 (IRAK1, Homo sapiens, UniProt P51617) | 77% |
| Dual specificity mitogen-activated protein kinase kinase 3 (MAP2K3, Homo sapiens, UniProt P46734) | 71% |
| Testis-specific serine/threonine-protein kinase 3 (TSSK3, Homo sapiens, UniProt Q96PN8) | 97% |
| Peripheral plasma membrane protein CASK (CASK, Homo sapiens, UniProt O14936) | 76% |
| Proto-oncogene tyrosine-protein kinase receptor Ret (RET, Homo sapiens, UniProt P07949) | 94% |
| Tyrosine-protein kinase Lck (LCK, Homo sapiens, UniProt P06239) | 83% |
| Tyrosine-protein kinase receptor Tie-1 (TIE1, Homo sapiens, UniProt P35590) | 98% |
| Calcium/calmodulin-dependent protein kinase kinase 1 (CAMKK1, Homo sapiens, UniProt Q8N5S9) | 100% |
| Serine/threonine-protein kinase tousled-like 1 (TLK1, Homo sapiens, UniProt Q9UKI8) | 100% |
| Proto-oncogene tyrosine-protein kinase ROS (ROS1, Homo sapiens, UniProt P08922) | 87% |
| 5'-AMP-activated protein kinase catalytic subunit alpha-2 (PRKAA2, Homo sapiens, UniProt P54646) | 86% |
| G protein-coupled receptor kinase 4 (GRK4, Homo sapiens, UniProt P32298) | 100% |
| Tyrosine-protein kinase JAK1, JH1 (JAK1, Homo sapiens, UniProt P23458) | 76% |
| Tyrosine-protein kinase JAK2, JH1 (JAK2, Homo sapiens, UniProt O60674) | 65% |
| Serine/threonine-protein kinase PAK 3 (PAK3, Homo sapiens, UniProt O75914) | 82% |

For quick reference, copied from above (series 4):
| target | remaining binding |
| --- | --- |
| Serine/threonine-protein kinase tousled-like 1 (TLK1, Homo sapiens, UniProt Q9UKI8) | 100% |
| Proto-oncogene tyrosine-protein kinase ROS (ROS1, Homo sapiens, UniProt P08922) | 87% |
| 5'-AMP-activated protein kinase catalytic subunit alpha-2 (PRKAA2, Homo sapiens, UniProt P54646) | 86% |
| G protein-coupled receptor kinase 4 (GRK4, Homo sapiens, UniProt P32298) | 100% |
